Results pooled from the literature.
Parts stem from different laboratories: compare values within a part only. Changes are numbered by the printed parent chain.

Sample 1 — method: Sort-seq; item: YFP reporter; sample: E. coli; notes: PhoQ-PhoP variant library; with: 10 µM Mg2+; relative to: high Mg2+ state; direction: higher = stronger signaling
Molecule: PhoQ, residues 284 288 289 292 302 303 SNGLAW
target | fold induction
PhoP, residues 12 14 15 18 19 HHYTI (Escherichia coli, UniProt P23836) | 11.6
PhoP, residues 12 14 15 18 19 AYFRS (Escherichia coli, UniProt P23836) | 10.3
PhoP, residues 12 14 15 18 19 SFCSL (Escherichia coli, UniProt P23836) | 13.2

Sample 2 — target: CCNA1, cyclin fold, Cln2 fusion (human); method: yeast growth competition, sequencing; sample: yeast; notes: weak parent motif; relative to: not given; direction: higher = stronger binding
Starting sequence: RBL1 docking peptide (human); GSAKRRLFGEDPP; partner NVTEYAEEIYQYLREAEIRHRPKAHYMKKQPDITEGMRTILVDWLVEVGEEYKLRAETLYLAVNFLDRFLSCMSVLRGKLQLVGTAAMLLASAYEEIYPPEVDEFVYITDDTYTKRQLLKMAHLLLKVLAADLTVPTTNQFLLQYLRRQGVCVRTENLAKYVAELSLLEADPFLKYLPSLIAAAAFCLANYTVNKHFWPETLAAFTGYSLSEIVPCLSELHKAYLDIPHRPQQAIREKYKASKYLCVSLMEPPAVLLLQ
Variant | normalised enrichment score
E10G | 0.128
S2R | 0.652
R5A L7A | -0.00234
A3K | 0.488
P13Q | 0.393
P13H | 0.977
R6F | 0.333
G1E | 0.36
D11M | 0.351
P13D | 0.46
G1N | 0.0786
G9V | 0.979
R5M | 0.324
A3W | 0.595
F8S | 0.141
G1T | 0.848
S2T | 0.747
E10H | 0.428
G1W | 0.486
R6S | 0.613
G9A | 0.867
A3S | 0.217
G1Y | 0.906
K4T | 0.528
S2Q | 0.595

Sample 3 — method: RNA Bind-n-Seq; molecule type: RNA; sample: in vitro; concentration: 365 nM; relative to: no-protein control; direction: higher = stronger binding
Target: RNA binding protein fox-1 homolog 2, RRM domain, GST-SBP tag (RBFOX2, Homo sapiens, UniProt O43251-10, residues 100-194)
Notes: natural RNA segment, single round, ends assumed
Constant ends, left off below: GGGAGUUCUACAGUCCGACGAUC … UGGAAUUCUCGGGUGCCAA
Construct (chain): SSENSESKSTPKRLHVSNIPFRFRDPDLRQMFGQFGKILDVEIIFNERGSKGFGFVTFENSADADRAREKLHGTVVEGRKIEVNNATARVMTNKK
Sequence | RBNS enrichment (R)
UUCUUACACCCAGCUUACGAGAUCUGGCUCAUACCUUCCCUUUGGAUCUCAUUAAAUGGUGAUUUCUCACUAUGCUCCAGCCCCUCUUAGGUCCUCAUCUCCGUCUUGCA | 0.749
CAAAGCCUCUCCAGCUAGCUGGGGCUCCUCCCCCUUCUGAGAGACUUGCGCUCCCGCAGGGAACACACAGGCCUCCUUGGGGGCGGGGGACCAUAUUUCACAGAGCAAUG | 0.199
AGAUGUUCGUUUCUGGUGGAAAUUGGGCCCCUGUGUUCCUCCAGGGCAAGUCUCAGGGGAAGCUCAUGUCUUUCUGCUUUACAAAGUGCUUCAAGCGUCAGCUCCAAGUG | 0.271
GGUCUUGUUAAAAUCUAGUCCGGGCGCAGUGGCUCACGCCUGUAAUCCCAGCACUUUGGGAGGCCAAGGCGGGCUGAUCACGAGGUCAAGAGAUCGAGACCAUCCUGGCC | 0.336
AGAAAGUGGGUUUGGAACGUAUGGUUUGGAAUUGCUUGUCAGACUCUGAAGAAGAUGUGUUUCAGCUUGGGAUUACAAACCCCAUUUAUAAUUUUUAAAUAUACUUGAAA | 1.06
UUUGUAAGAAGGCAAUAUUAACCUAAUCACCAUGUAAGCACUCUGGAUGAUGGAUUCCACAAAACUUGGUUUUAUGGUUACUUCUUCUCUUAGAUUCUUAAUUCAUGAGG | 0.746
AAAUUAUGUUCUACUAUGCUCAGGCCCAAAGGCAAUGUGGGGGCCAAAGGGCAACUGGCCUUCUGACCCACUAGAGCCUUGCAAAGAGUUGGCAGUCAGGGGGGUGUCAU | 0.33
CUUUUGUGAAAUUCAGAAUUUUUCUUUUUAAUAUAUUUCUUCCAUGGAAGAGUUGUCAUCACUAAAACUUCAGUACUGAGAGUAACAUGACUCAGUAGCCACAGAAGCUA | 0.469

Sample 4 — method: DHFR PCA, deep sequencing; sample: yeast; with: (+)-ABA 0.032 µM; relative to: wild-type fitted maximum; direction: higher = stronger binding
Target: ABI1, truncated, D143A, DHFR fusion (Arabidopsis thaliana)
Notes: methotrexate growth selection, single substitutions
Starting sequence: PYL1, truncated, DHFR fusion (Arabidopsis thaliana); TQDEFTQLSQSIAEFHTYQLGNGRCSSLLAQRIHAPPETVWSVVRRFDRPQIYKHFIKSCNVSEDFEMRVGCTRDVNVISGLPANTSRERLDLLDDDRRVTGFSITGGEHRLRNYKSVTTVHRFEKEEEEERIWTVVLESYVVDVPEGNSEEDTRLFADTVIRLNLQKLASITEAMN; partner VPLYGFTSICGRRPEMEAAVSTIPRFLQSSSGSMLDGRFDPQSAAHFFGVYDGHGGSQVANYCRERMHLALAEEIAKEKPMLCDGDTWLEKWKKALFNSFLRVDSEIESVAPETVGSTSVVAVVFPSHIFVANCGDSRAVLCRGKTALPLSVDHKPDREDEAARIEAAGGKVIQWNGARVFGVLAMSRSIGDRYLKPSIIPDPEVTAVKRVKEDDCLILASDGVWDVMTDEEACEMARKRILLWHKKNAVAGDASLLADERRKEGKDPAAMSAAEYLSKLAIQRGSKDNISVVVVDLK
Variant | relative binding score [%]
Q51L | -6.97
Q19H | 19.5
S140V | 2.46
E174Y | -5.35
A158Q | 18.6
L82D | 2.13
L138E | 5.94
I172D | -19.2
E38P | 5.06
D97S | 21.5
V118W | -3.91
T119E | 0.641
Q51K | 10.3

Sample 5 — method: protein binding microarray; molecule type: double-stranded DNA, one strand shown; sample: in vitro; concentration: not given; relative to: not given; direction: higher = stronger binding
Target: Histone acetyltransferase KAT6A, winged helix 2, GST fusion (KAT6A, Homo sapiens, UniProt Q92794, residues 85-181)
Notes: 8-mer, flanks averaged, mean of 2 arrays, mostly near background
Construct (chain): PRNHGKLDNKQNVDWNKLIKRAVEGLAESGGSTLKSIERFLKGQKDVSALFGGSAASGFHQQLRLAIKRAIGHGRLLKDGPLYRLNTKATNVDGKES
Sequence | E-score
GATCACGA | -0.00673
GCGGGATA | 0.0226
CCCACGGC | 0.215
CCAAAGAG | 0.0154
ATCCTCCC | -0.0533
ATCGGATG | 0.00602
CCCCTGCC | 0.156
ATCCAGTC | -0.0986
CACACCAA | -0.025
AACTCCAG | 0.0087
GCGTAGAA | 0.0352
AATGACGT | -0.135
AGCTTCCC | -0.0271
CAAACTTG | 0.149
AATAATGG | -0.0927

For quick reference, copied from above (sample 2):
Variant | normalised enrichment score
F8S | 0.141
R6F | 0.333
A3K | 0.488
K4T | 0.528
P13Q | 0.393
E10G | 0.128
S2R | 0.652
G1E | 0.36
G1N | 0.0786
S2Q | 0.595
